# Measurements gathered from unrelated publications.
# Parts stem from different laboratories: compare values within a part only. Substitutions count along the parent as printed.

# Study 1
# Target: Fragile X messenger ribonucleoprotein 1, C-terminal low-complexity region (Fmr1, Mus musculus, UniProt P35922)
# Technique: RNA Bind-n-Seq
# Form: RNA
# Matrix: in vitro
# Tested at: 200 nM
# Notes: whole 134-nt RNA, ends assumed
# Together with: 150 mM KCl
# Relative to: input library
# Direction: higher = stronger binding
Oligonucleotide,log2 enrichment
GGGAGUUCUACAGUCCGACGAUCUAACUUUAGAGGAGGAUCUGAUGGAUAUGGCAGUGGACGUGGGUUUGGGGAUGGCUAUAAUGGGUAUGGAGGAGGACCUGGAGGUGGCAAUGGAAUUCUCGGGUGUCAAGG,0.376
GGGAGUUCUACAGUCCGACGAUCAGUCCUGUGCUACACAUCGUAUGUACCGAAUCGGGAAAAAGGGUUUGGGUUUUUGGGAAAGUAUUAUGUUACGCCGUUCGGAUCUGCACUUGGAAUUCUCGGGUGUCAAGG,-0.00657
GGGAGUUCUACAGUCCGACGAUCAGUCCUGUGCUACACAUCGUAUGUACCGAAUCGGCCCCCGGGGCCCCCGGCCCCCGGGAAAGUAUUAUGUUACGCCGUUCGGAUCUGCACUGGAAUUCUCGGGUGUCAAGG,-0.637
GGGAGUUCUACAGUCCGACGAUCUCCUGUGCUACACAUCGUAUGUACCGAAUCAAACCCCCAAACCCCCAAACCCCCCCAAAAAAGUAUUAUGUUACGCCGUUCGGAUCUGCAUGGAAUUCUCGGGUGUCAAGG,-0.000588
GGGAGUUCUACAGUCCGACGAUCAGUCCUGUGCUACACAUCGUAUGUACCGAAUCGGGUUUUUUUGGGUGGGUUUUUGGGAAAGUAUUAUGUUACGCCGUUCGGAUCUGCACUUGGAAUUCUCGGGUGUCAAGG,0.834
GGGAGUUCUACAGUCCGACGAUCUCCUGUGCUACACAUCGUAUGUACCGAAUCGGGGAAAAAGGGGAAAAAGGGGUUUGGGGAAAGUAUUAUGUUACGCCGUUCGGAUCUGCAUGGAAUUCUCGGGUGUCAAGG,0.618
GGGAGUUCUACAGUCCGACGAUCUGGGAGGCGGAUUUUGUUUAUUUUUUUAGCUCAUUUCCAGGGGUGGGAAUUUUUUUUUAAUAUGUGUCAUGAAUAAAGUUGUUUUUGAAAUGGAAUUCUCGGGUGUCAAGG,0.14
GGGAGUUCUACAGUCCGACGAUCUGGGAGGUGGAUUUUGUUUAUUUUGUUAGCUCAUUUCCAGGGGUGGGAAUUUUUUUUUAAUAUGUGUCAUGAAUAAAGUUGUUUUUGAAAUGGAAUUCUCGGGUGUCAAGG,0.292

# Study 2
# Target: Histone acetyltransferase KAT6A, winged helix 1, GST fusion (KAT6A, Homo sapiens, UniProt Q92794, residues 1-85)
# Technique: protein binding microarray
# Form: double-stranded DNA, one strand shown
# Matrix: in vitro
# Tested at: not given
# Notes: 8-mer, flanks averaged, mean of 2 arrays, mostly near background
# Relative to: not given
# Direction: higher = stronger binding
# Construct (chain): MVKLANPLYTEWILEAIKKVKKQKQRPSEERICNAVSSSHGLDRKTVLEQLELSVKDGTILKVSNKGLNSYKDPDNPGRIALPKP
Oligonucleotide,E-score
ACGCTTCC,0.256
ATGATTTG,-0.121
CCTGTAAC,-0.153
AATTCTTG,-0.0877
GTGCCTCA,-0.0804
CTACTGCA,-0.168
ACAAGCGC,0.343
TAGTGGAA,-0.0575
ATGGGCCC,-0.123
GTTTCTGA,-0.0573
CCTCTTCA,-0.154
TGCGGAAA,0.197
CGCCTAAG,0.226
CACTCACC,-0.118
GAGATTGC,0.0903
TCCGGTCA,0.0543
CATGTCCG,0.21
CGTATTAA,0.0681
CACTCTGA,-0.0641
AGTGGTCG,-0.144
CCCATGGA,-0.232
AAAAAGTC,-0.0758
GAGATCCA,-0.111

# Study 3
# Target: CCND2, cyclin fold, Cln2 fusion (human)
# Technique: yeast growth competition, sequencing
# Matrix: yeast
# Notes: weak parent motif
# Relative to: not given
# Direction: higher = stronger binding
# Parent: GMNC docking peptide (human); KNAKRNLSSEFAN
Substitution,normalised enrichment score
A12S,-0.0588
N2V,-0.0291
N6A,0.00418
A12Q,-0.323
L7T,0.132
S9V,0.252
L7F,-0.0226
A3R,0.158
E10F,-0.177
A12L,0.0521
N2R,0.815

# Study 4
# Target: Sal-like protein 4, full length isoform B (SALL4, Homo sapiens, UniProt Q9UJQ4-2, residues 1-616)
# Technique: universal PBM
# Form: double-stranded DNA, one strand shown
# Matrix: in vitro
# Tested at: not given
# Notes: 8-mer, flanks averaged, mean of replicates
# Direction: higher = stronger binding
# Target sequence (chain): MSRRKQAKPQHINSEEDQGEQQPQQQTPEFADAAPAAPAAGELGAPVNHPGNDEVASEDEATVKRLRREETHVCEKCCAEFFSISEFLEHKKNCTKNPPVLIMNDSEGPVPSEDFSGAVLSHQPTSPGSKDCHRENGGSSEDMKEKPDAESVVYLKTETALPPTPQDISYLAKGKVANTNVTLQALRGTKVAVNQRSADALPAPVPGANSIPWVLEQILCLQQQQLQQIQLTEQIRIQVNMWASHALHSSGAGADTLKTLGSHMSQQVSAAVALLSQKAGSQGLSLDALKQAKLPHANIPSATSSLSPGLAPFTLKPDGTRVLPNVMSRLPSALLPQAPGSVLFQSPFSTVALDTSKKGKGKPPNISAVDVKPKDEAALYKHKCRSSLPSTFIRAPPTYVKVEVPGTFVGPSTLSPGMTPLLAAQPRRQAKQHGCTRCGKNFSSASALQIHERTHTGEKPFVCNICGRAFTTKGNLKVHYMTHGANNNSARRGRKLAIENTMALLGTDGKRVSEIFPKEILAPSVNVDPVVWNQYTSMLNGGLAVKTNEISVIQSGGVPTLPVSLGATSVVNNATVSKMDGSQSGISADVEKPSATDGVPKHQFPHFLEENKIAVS
Oligonucleotide,E-score
GCTACCCA,-0.23
AATAGATC,0.163
CGAATGAC,0.12
AATAGTCA,0.134
AGCTCTTC,-0.14
AAAATAAC,0.296
GGAGCTAA,-0.166
CCTCAAAC,-0.163
GGGCATTA,-0.12
GGCAGATA,-0.0508
CCCACGTC,-0.191
GCAATAGC,-0.0724
AGTAAGTG,0.027
GACCAAGA,-0.186
GCATATAA,0.325
CTCCTCTA,-0.04
CATGACGG,-0.0747

# Study 5
# Target: Interferon regulatory factor 7, full length, phosphomimetic (IRF7, Homo sapiens, UniProt Q92985, residues 1-503, S471D/S472D/S475D/S476D/S477D/S483D/S484D/S487D)
# Chain of UniProt Q92985 (whole entry, unmodified, looked up): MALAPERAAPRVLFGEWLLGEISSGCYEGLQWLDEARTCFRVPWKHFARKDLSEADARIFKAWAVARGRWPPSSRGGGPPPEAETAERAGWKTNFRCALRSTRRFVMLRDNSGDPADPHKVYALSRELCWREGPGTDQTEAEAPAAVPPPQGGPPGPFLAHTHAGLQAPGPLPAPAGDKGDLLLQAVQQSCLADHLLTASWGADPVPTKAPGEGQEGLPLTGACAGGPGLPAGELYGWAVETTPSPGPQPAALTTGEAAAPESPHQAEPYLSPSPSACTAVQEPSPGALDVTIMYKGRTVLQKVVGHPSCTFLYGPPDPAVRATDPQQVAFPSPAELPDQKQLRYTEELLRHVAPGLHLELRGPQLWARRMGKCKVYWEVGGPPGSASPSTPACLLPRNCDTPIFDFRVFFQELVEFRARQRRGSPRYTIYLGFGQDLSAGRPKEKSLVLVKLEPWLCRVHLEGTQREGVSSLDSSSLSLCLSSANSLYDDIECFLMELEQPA
# Technique: protein-binding microarray
# Form: double-stranded DNA, one strand shown
# Matrix: in vitro
# Tested at: 2200 nM top
# Notes: 60-bp whole probe
# Together with: salmon DNA 0.4 mg/ml
# Relative to: random background probes
# Direction: higher = stronger binding
# Constant ends, left off below: GCCTAGCAC … GTCTTGATTCGCTTGACGCTGCTG
Oligonucleotide,fitted relative affinity [z-score]
TTAAGACTGCTTATCCTTTAGTGCTAG,0.383
TCATTTTTCTAACCCATACTGTGCTAG,2
AAGCCAGCCAAGGCCACTGTGTGCTAG,-0.823
TCAGCTCTGTGCTTTCCTACTGTGCTA,1.33
TTAGATTTAAGTATCGATTAGTGCTAG,-0.149
TTAGATTTCAGTTTCGGTTAGTGCTAG,9.78
TGAAGACTCTCTTGTCTGGATGTGCTA,-0.0962
TCAGGTCTCTTGTTCTCACTGTGCTAG,1.29
AGCCTGGCCAAGCTCACAGCGTGCTAG,-1.08

# Study 6
# Target: Phosphate system positive regulatory protein PHO4, full length, GST-tagged (PHO4, Saccharomyces cerevisiae, UniProt P07270, residues 1-312)
# Technique: competition protein-binding microarray
# Form: double-stranded DNA, one strand shown
# Matrix: in vitro
# Tested at: 2 µM
# Notes: whole 60-bp probe, lowest competitor level
# Together with: Cbf1 competitor, 0.05 µM
# Direction: higher = stronger binding
# Construct (chain): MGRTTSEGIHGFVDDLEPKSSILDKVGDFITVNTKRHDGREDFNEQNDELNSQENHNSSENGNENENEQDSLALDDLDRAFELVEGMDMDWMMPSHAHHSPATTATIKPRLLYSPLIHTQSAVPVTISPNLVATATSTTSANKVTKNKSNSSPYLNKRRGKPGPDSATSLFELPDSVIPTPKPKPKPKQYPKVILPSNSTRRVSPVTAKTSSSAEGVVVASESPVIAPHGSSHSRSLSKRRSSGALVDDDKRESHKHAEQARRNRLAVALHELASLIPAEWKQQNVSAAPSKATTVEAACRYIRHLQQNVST
Oligonucleotide,fluorescence intensity
TAATGGCGGGTCAGTGACATGCGCGGACAAAATAACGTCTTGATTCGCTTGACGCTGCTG,6600 a.u.
TACGTATATTGCCTTCACATGCCGAGAAAGCCGACAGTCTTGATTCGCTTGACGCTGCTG,6310 a.u.
AAATTACTAAGTTGGCAGGTGGGTGACGCCGTATGAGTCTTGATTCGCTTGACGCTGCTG,5940 a.u.
AGTAGCCAACTTCTTAACGTGTTGGGCAAGCAAGATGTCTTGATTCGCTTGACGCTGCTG,7170 a.u.
CGTCCTAGTGATTGTCACCAAACTTCCATGAGGAAGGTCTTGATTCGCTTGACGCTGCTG,4450 a.u.
AGAATGCCACCAGACTTCATGACAGAAAAAGCTGCCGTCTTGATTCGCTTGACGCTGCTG,3390 a.u.
TGGAAATAACACTTCCACGTGGAACTATTAAATTGGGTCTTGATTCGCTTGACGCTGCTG,15100 a.u.
TGAGGTAAGATTCTCTCCGTGCCAGCCTCTGGTGCTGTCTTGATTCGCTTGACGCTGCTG,4430 a.u.
TTGTGGTGAAGCCGTTTTGTGATGGGTGTGGCGCGAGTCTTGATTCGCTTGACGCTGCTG,4680 a.u.
CTAACGAAGGTTTGTCACGTAACTTACAAGCCAAGTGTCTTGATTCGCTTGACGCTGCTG,4400 a.u.
ATCAAGGTGCCTTGCCACCTGATCTATCTTTGATCGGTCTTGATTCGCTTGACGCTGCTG,4450 a.u.
CTTCTGTAAATTTTTCACGTGGTATGACGCGCCCCGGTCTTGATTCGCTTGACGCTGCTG,14800 a.u.

# For quick reference, copied from above (study 1):
Oligonucleotide,log2 enrichment
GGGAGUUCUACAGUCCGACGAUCUCCUGUGCUACACAUCGUAUGUACCGAAUCGGGGAAAAAGGGGAAAAAGGGGUUUGGGGAAAGUAUUAUGUUACGCCGUUCGGAUCUGCAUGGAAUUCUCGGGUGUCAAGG,0.618
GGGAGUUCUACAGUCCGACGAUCUGGGAGGCGGAUUUUGUUUAUUUUUUUAGCUCAUUUCCAGGGGUGGGAAUUUUUUUUUAAUAUGUGUCAUGAAUAAAGUUGUUUUUGAAAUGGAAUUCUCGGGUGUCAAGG,0.14
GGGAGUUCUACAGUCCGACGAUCUGGGAGGUGGAUUUUGUUUAUUUUGUUAGCUCAUUUCCAGGGGUGGGAAUUUUUUUUUAAUAUGUGUCAUGAAUAAAGUUGUUUUUGAAAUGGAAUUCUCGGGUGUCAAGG,0.292
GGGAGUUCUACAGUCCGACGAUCAGUCCUGUGCUACACAUCGUAUGUACCGAAUCGGCCCCCGGGGCCCCCGGCCCCCGGGAAAGUAUUAUGUUACGCCGUUCGGAUCUGCACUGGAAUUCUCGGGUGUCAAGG,-0.637
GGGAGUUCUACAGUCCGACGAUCUAACUUUAGAGGAGGAUCUGAUGGAUAUGGCAGUGGACGUGGGUUUGGGGAUGGCUAUAAUGGGUAUGGAGGAGGACCUGGAGGUGGCAAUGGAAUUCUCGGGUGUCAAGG,0.376
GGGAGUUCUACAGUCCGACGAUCUCCUGUGCUACACAUCGUAUGUACCGAAUCAAACCCCCAAACCCCCAAACCCCCCCAAAAAAGUAUUAUGUUACGCCGUUCGGAUCUGCAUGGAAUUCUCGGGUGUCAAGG,-0.000588
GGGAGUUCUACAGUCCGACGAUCAGUCCUGUGCUACACAUCGUAUGUACCGAAUCGGGUUUUUUUGGGUGGGUUUUUGGGAAAGUAUUAUGUUACGCCGUUCGGAUCUGCACUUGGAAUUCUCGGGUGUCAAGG,0.834
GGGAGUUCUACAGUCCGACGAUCAGUCCUGUGCUACACAUCGUAUGUACCGAAUCGGGAAAAAGGGUUUGGGUUUUUGGGAAAGUAUUAUGUUACGCCGUUCGGAUCUGCACUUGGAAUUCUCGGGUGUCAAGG,-0.00657
